Measurements collected from several papers.
Parts stem from different laboratories: compare values within a part only. Changes are numbered by the printed parent chain.

Set 1
Target: CCNB2, cyclin fold, Cln2 fusion (human)
Method: yeast growth competition, sequencing
Matrix: yeast
Setting: weak parent motif
Baseline: not given
Direction: higher = stronger binding
Parent: E2F1 docking peptide (human); PPVKRRLDLETDH; partner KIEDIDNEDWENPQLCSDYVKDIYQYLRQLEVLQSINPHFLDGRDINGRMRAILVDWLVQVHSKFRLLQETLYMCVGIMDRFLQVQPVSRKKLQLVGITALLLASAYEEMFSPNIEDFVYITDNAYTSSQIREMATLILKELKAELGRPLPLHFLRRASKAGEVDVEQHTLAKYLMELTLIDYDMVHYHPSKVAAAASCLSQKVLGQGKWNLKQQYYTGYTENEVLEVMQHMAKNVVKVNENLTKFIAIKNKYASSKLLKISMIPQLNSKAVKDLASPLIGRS
Under “normalised enrichment score”, `PPVKRRLDLETGH [D12G]` is recorded as 0.257.
Under “normalised enrichment score”, `PPVKRRLDLEVDH [T11V]` is recorded as 0.223.
Under “normalised enrichment score”, `PVVKRRLDLETDH [P2V]` is recorded as 0.166.
For `PPVKRQLDLETDH [R6Q]`, “normalised enrichment score” read 0.201.
Under “normalised enrichment score”, `PPVKRRLDLGTDH [E10G]` is recorded as 0.783.
`PPVKFRLDLETDH [R5F]`: “normalised enrichment score” -0.0306.
Under “normalised enrichment score”, `EPVKRRLDLETDH [P1E]` is recorded as 0.182.
Under “normalised enrichment score”, `PPVDRRLDLETDH [K4D]` is recorded as -0.216.
`PPVKDRLDLETDH [R5D]` — result for “normalised enrichment score”: 0.0638.
`PPVKRRLDLFTDH [E10F]`: “normalised enrichment score” 0.677.
`PPVKRRLDLETQH [D12Q]` — result for “normalised enrichment score”: 0.855.
`PPVKRRLDLTTDH [E10T]` — result for “normalised enrichment score”: 0.319.

Set 2
Target: Centromere-binding protein 1, full length, His-tagged (CBF1, Saccharomyces cerevisiae, UniProt P17106, residues 1-351)
Sequence of UniProt P17106 (whole entry, looked up): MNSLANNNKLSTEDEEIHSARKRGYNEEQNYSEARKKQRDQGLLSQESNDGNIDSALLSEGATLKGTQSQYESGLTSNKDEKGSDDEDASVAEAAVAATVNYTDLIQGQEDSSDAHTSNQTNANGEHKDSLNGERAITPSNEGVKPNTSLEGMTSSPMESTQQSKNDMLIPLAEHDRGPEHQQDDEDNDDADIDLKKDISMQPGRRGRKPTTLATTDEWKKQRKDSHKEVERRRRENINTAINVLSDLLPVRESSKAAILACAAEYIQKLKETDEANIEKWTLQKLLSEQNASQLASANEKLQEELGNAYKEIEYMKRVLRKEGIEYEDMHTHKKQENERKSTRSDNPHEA
Method: competition protein-binding microarray
Form: double-stranded DNA, one strand shown
Matrix: in vitro
Concentration: 2 µM
Setting: whole 60-bp probe, lowest competitor level
Together with: Pho4 competitor, 0.05 µM
Direction: higher = stronger binding
Shared flanks, not repeated: … GTCTTGATTCGCTTGACGCTGCTG
`AAATTACTAAGTTGGATAGTGGGTGACGCCGTATGA` gave a fluorescence intensity of 77.7 a.u.
`CTAACGAAGGTTTGGAAGGTGGGTGACAAGCCAAGT` has a fluorescence intensity of 55.9 a.u.
The fluorescence intensity of `TGCCCAAAGCTCTGGCACGTATGAAACTGCTTTTCG` is reported as 62.3 a.u.
For `CATACCCAACCTTGAGCCGTGGGTGAAGATATTTGT`, the fluorescence intensity was 70.7 a.u.
`AGTTTCAGAGGTGGACACATGGGAGCCAACAGCTCA` has a fluorescence intensity of 76.9 a.u.
`TAGAGAGTTGTCCATCACGTTGGACAGGTTGTACTT` gave a fluorescence intensity of 183 a.u.
The fluorescence intensity of `GGAAGGTACACAAGTCACATGGCAACTGGCTAGGAT` is reported as 977 a.u.
For `CTTCTGTAAATTTTTCACGTGGGATGACGCGCCCCG`, the fluorescence intensity was 613 a.u.
`AAATTACTAAGTTGGCTGGTGGGTGACGCCGTATGA` gave a fluorescence intensity of 60.9 a.u.
`AGTTGTTGCTCGTCGCTCGTGTAGGACTGTAGTTGC` has a fluorescence intensity of 57 a.u.
The fluorescence intensity of `CTTTCCCGATCTTGTCCGGTGGGTGTAGCACATTTG` is reported as 76.3 a.u.
With `CGTCCTAGTGATTGTCACGATACTTCCATGAGGAAG` the fluorescence intensity was 234 a.u.
The fluorescence intensity of `TCTAATGGTACCCCAAATATCTTATTATGAGTTTTA` is reported as 62.1 a.u.
`TCGAGGACGTATTGGCAGGTGAAGTTTTCAGCAACT` gave a fluorescence intensity of 76.8 a.u.
The fluorescence intensity of `TGCGCAACAACTTGACGTGTGGGTGTATGTCTAGAA` is reported as 73.8 a.u.
`CATGATTTCCTATTGTGCGTGCCGAATTTACGGACG` gave a fluorescence intensity of 194 a.u.

Set 3
Target: Interferon regulatory factor 3, full length, phosphomimetic (IRF3, Homo sapiens, UniProt Q14653, residues 1-427, S386D/S396D/S398D/S402D/T404D/S405D)
Method: protein-binding microarray
Form: double-stranded DNA, one strand shown
Matrix: in vitro
Concentration: 2540 nM top
Setting: 60-bp whole probe
Together with: salmon DNA 0.4 mg/ml
Baseline: random background probes
Direction: higher = stronger binding
Shared flanks, not repeated: GCCTAGCAC … GTCTTGATTCGCTTGACGCTGCTG
Target sequence (chain): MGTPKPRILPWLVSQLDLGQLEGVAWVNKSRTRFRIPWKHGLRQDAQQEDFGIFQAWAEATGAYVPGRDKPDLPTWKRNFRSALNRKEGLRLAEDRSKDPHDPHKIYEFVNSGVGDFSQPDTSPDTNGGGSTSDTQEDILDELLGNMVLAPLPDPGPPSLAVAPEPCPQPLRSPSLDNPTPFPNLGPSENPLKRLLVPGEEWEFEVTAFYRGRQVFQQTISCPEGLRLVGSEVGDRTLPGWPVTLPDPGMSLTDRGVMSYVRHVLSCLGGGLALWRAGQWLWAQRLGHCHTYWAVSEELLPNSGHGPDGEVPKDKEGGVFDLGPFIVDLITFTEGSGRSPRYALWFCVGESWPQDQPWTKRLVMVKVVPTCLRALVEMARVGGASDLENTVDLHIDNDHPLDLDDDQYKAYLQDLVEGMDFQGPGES
Under “fitted relative affinity”, `GACGATTTCGGGACTAGAGACGTGCTA` is recorded as 1.97 z-score.
`TGAGGTATCCTACTGCTTTAGTGCTAG`: “fitted relative affinity” 2.06 z-score.
For `TCACTTTCCACTTGTCTTACTGTGCTA`, “fitted relative affinity” read 4.24 z-score.
Under “fitted relative affinity”, `GACGAACTGAGTGTCGAGACGTGCTAG` is recorded as -0.207 z-score.
For `TTAGTTATCGGGTTTCGGTTAGTGCTA`, “fitted relative affinity” read 3.15 z-score.
`GACGACATCGGGACTGGAGACGTGCTA` — result for “fitted relative affinity”: -0.56 z-score.
`GACGGTCTACTTCTCCTGACGTGCTAG` — result for “fitted relative affinity”: 0.67 z-score.
Under “fitted relative affinity”, `TCGTTATCCTATATCTGAACGTGCTAG` is recorded as 2.35 z-score.
`TTAGATTTCAGTCTCGAATAGTGCTAG`: “fitted relative affinity” 2.46 z-score.
Under “fitted relative affinity”, `TCCATGACCTACCCTGCGTTGTGCTAG` is recorded as -0.51 z-score.
`TTAGTTTCCCTTTTCCTTTAGTGCTAG` — result for “fitted relative affinity”: 12.9 z-score.
`TTAGATATCAGTATCGAATAGTGCTAG`: “fitted relative affinity” 1.45 z-score.
For `TTAGATATCAGTATCAATTAGTGCTAG`, “fitted relative affinity” read 1.33 z-score.
`TCATACTTCTGTTTTTGACTGTGCTAG`: “fitted relative affinity” 0.925 z-score.
Under “fitted relative affinity”, `GACGAGTTCAGTCTCGAGACGTGCTAG` is recorded as 0.25 z-score.

Set 4
Substance: PhoQ, residues 284 288 289 292 302 303 SASVAL
Method: Sort-seq
Item: YFP reporter
Matrix: E. coli
Setting: PhoQ-PhoP variant library
Together with: 10 µM Mg2+
Baseline: high Mg2+ state
Direction: higher = stronger signaling
It gave 15.3 for fold induction (PhoP, residues 12 14 15 18 19 ICWRQ (Escherichia coli, UniProt P23836)).
For PhoP, residues 12 14 15 18 19 VHTVL (Escherichia coli, UniProt P23836): fold induction read 20.4.
The fold induction was 15.3 (PhoP, residues 12 14 15 18 19 TQCLL (Escherichia coli, UniProt P23836)).
